{"data": "Published values pooled from the literature", "U2AF2": "U2AF2 148-342 (Homo sapiens, UniProt P26368)", "B1": "human hnRNP Q; sequence looked up; chain ATEHVNGNGTEEPMDTTSAVIHSENFQTLLDAGLPQKVAEKLDEIYVAGLVAHSDLDERAIEALKEFNEDGALAVLQQFKDSDLSHVQNKSAFLCGVMKTYRQREKQGTKVADSSKGPDEAKIKALLERTGYTLDVTTGQRKYGGPPPDSVYSGQQPSVGTEIFVGKIPRDLFEDELVPLFEKAGPIWDLRLMMDPLTGLNRGYAFVTFCTKEAAQEAVKLYNNHEIRSGKHIGVCISVANNRLFVGSIPKSKTKEQILEEFSKVTEGLTDVILYHQPDDKKKNRGFCFLEYEDHKTAAQARRRLMSGKVKVWGNVGTVEWADPIEDPDPEVMAKVKVLFVRNLANTVTEEILEKAFSQFGKLERVKKLKDYAFIHFDERDGAVKAMEEMNGKDLEGENIEIVFAKPPDQKRKERKAQRQAAKNQMYDDYYYYGPPHMPPPTRGRGRGGRGGYGYPPDYYGYEDYYDYYGYDYHNYRGGYEDPYYGYEDFQVGARGRGGRGARGAAPSRGRGAAPPRGRAGYSQRGGPGSARGVRGARGGAQQQRGRGVRGARGGRGGNVGGKRKADGYNQPDSKRRQTNNQNWGSQPIAQQPLQGGDHSGNYGYKSENQEFYQDTFGQQWK", "B2": "Reticulon-4 (human); sequence looked up; chain MEDLDQSPLVSSSDSPPRPQPAFKYQFVREPEDEEEEEEEEEEDEDEDLEELEVLERKPAAGLSAAPVPTAPAAGAPLMDFGNDFVPPAPRGPLPAAPPVAPERQPSWDPSPVSSTVPAPSPLSAAAVSPSKLPEDDEPPARPPPPPPASVSPQAEPVWTPPAPAPAAPPSTPAAPKRRGSSGSVDETLFALPAASEPVIRSSAENMDLKEQPGNTISAGQEDFPSVLLETAASLPSLSPLSAASFKEHEYLGNLSTVLPTEGTLQENVSEASKEVSEKAKTLLIDRDLTEFSELEYSEMGSSFSVSPKAESAVIVANPREEIIVKNKDEEEKLVSNNILHNQQELPTALTKLVKEDEVVSSEKAKDSFNEKRVAVEAPMREEYADFKPFERVWEVKDSKEDSDMLAAGGKIESNLESKVDKKCFADSLEQTNHEKDSESSNDDTSFPSTPEGIKDRSGAYITCAPFNPAATESIATNIFPLLGDPTSENKTDEKKIEEKKAQIVTEKNTSTKTSNPFLVAAQDSETDYVTTDNLTKVTEEVVANMPEGLTPDLVQEACESELNEVTGTKIAYETKMDLVQTSEVMQESLYPAAQLCPSFEESEATPSPVLPDIVMEAPLNSAVPSAGASVIQPSSSPLEASSVNYESIKHEPENPPPYEEAMSVSLKKVSGIKEEIKEPENINAALQETEAPYISIACDLIKETKLSAEPAPDFSDYSEMAKVEQPVPDHSELVEDSSPDSEPVDLFSDDSIPDVPQKQDETVMLVKESLTETSFESMIEYENKEKLSALPPEGGKPYLESFKLSLDNTKDTLLPDEVSTLSKKEKIPLQMEELSTAVYSNDDLFISKEAQIRETETFSDSSPIEIIDEFPTLISSKTDSFSKLAREYTDLEVSHKSEIANAPDGAGSLPCTELPHDLSLKNIQPKVEEKISFSDDFSKNGSATSKVLLLPPDVSALATQAEIESIVKPKVLVKEAEKKLPSDTEKEDRSPSAIFSAELSKTSVVDLLYWRDIKKTGVVFGASLFLLLSLTVFSIVSVTAYIALALLSVTISFRIYKGVIQAIQKSDEGHPFRAYLESEVAISEELVQKYSNSALGHVNCTIKELRRLFLVDDLVDSLKFAVLMWVFTYVGALFNGLTLLILALISLFSVPVIYERHQAQIDHYLGLANKNVKDAMAKIQAKIPGLKRKAE", "note": "Compare with care: the assays were run in different laboratories. “And” joins repeats or separate records; there may be more than shown.", "sequence of UniProt P26368 (whole entry, looked up)": "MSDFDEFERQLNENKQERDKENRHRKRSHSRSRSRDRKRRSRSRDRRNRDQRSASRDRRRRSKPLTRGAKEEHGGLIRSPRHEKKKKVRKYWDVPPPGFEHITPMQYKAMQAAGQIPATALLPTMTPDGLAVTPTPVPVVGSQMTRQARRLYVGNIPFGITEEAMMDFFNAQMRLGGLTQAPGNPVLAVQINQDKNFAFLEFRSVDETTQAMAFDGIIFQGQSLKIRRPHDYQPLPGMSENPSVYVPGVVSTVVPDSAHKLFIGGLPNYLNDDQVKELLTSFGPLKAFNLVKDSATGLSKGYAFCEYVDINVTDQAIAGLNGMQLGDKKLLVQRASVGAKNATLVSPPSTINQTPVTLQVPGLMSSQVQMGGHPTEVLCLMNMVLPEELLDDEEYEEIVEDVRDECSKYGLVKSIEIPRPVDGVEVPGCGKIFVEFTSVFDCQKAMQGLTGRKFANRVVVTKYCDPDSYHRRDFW"}
{"Molecule": "B1 (human hnRNP Q)", "tested on": "PP6C (human)", "test": "co-immunoprecipitation, IP-MS", "system": "CYB5R4 knockout cells", "conditions": "concentration not given", "scale": "reference: CYB5R4 knockout over parental", "quantity": "log2 fold change", "result": -0.54}
{"Molecule": "VMRLQSETSV", "tested on": "construct, MBP fusion, human SCRIB, PDZ 3-4", "test": "automated holdup", "system": "peptide, crude extract", "conditions": "concentration not given, corrected by standard peak, unit not given", "scale": "reference: biotin control resin, higher = stronger binding", "quantity": "binding intensity", "result": 0.488}
{"Molecule": "B2 (Reticulon-4)", "tested on": "CYB5R4 knockout human cells", "test": "PP4 interaction, 3xFLAG-PP4C IP-MS", "conditions": "concentration not given", "scale": "reference: CYB5R4 KO over parental", "quantity": "log2 fold change", "result": -0.046}
{"Molecule": "GACCUUCUG (ssRNA)", "tested on": "U2AF2", "test": "sequencing of bound RNA", "system": "RNA", "conditions": "motif only", "quantity": "Kd", "result": "2050 nM"}
{"Molecule": "protein-L-isoaspartate O-methyltransferase, human", "tested on": "CYB5R4 knockout human cells", "test": "PP6 interaction, 3xFLAG-PP6C IP-MS", "conditions": "concentration not given", "scale": "reference: CYB5R4 KO over parental", "quantity": "log2 fold change", "result": -0.77}
{"Molecule": "Nisin", "tested on": "Bacillus subtilis", "system": "ATCC 6633", "conditions": "concentration not given", "quantity": "nucleoid area", "result": "0.77 µm² and 0.88 µm² and 0.75 µm²"}
{"Molecule": "colistin", "tested on": "Escherichia coli", "test": "broth microdilution", "system": "clinical isolate RKI-No_317/16", "quantity": "MIC", "result": "4 µg/mL"}
{"Molecule": "Peginesatide", "tested on": "UT7/EPO", "test": "tyrosine phosphorylation, LC-MS/MS phosphoproteomics, GluC, measured: STAT5A tyrosine 694", "conditions": "10 nM, 15 min, together with: 10 U/mL EPO", "scale": "reference: vehicle", "quantity": "phosphorylation level", "result": "88.3 fold"}
{"Molecule": "QGRWDHETIV", "tested on": "construct, MBP fusion, human SCRIB, PDZ 3-4", "test": "automated holdup", "system": "peptide, purified PDZ protein", "conditions": "concentration not given, unit not given", "scale": "reference: biotin control resin, higher = stronger binding", "quantity": "binding intensity", "result": 0.153}
{"Molecule": "heparin sodium", "system": "human", "conditions": "intravenous infusion, 8 IU/kg/h, day 1 to 6", "scale": "reference: baseline", "quantity": "Emax of PT ratio", "result": 1.03}
{"Molecule": "maraviroc", "test": "Western blot", "system": "mice, NSG hu-PBL, HIV-infected, somatosensory cortex", "conditions": "i.p., 120 mg/kg twice daily, 3 weeks post infection", "scale": "reference: HIV-infected untreated mice, decrease", "quantity": "protein level", "result": "1.34 fold"}
{"Molecule": "ACUUUUAAA (ssRNA)", "tested on": "U2AF2", "test": "sequencing of bound RNA", "system": "RNA", "conditions": "motif only", "quantity": "Kd", "result": "1250 nM"}
{"Molecule": "durvalumab", "system": "human, plasma", "conditions": "intravenous, 1500 mg, cycle 4 day 1, together with: adavosertib 200 mg once daily", "quantity": "Cmax", "result": "512 µg/mL"}
{"note": "For quick reference, copied from above:"}
{"Molecule": "colistin", "tested on": "Escherichia coli", "test": "broth microdilution", "system": "clinical isolate RKI-No_317/16", "quantity": "MIC", "result": "4 µg/mL"}
{"Molecule": "Peginesatide", "tested on": "UT7/EPO", "test": "tyrosine phosphorylation, LC-MS/MS phosphoproteomics, GluC, measured: STAT5A tyrosine 694", "conditions": "10 nM, 15 min, together with: 10 U/mL EPO", "scale": "reference: vehicle", "quantity": "phosphorylation level", "result": "88.3 fold"}
